Assay results gathered from unrelated publications.
Compare with care: the assays were run in different laboratories. Values joined by “and” are separate records of one study, mostly repeats; a detail may differ. ± marks the error that the study gave.
Uncharacterized protein: Uncharacterized protein (Trypanosoma brucei brucei, UniProt Q386Q8)
ADRB2: Beta-2 adrenergic receptor (ADRB2, Homo sapiens, UniProt P07550)
UniProt P07550, sequence (whole entry, looked up): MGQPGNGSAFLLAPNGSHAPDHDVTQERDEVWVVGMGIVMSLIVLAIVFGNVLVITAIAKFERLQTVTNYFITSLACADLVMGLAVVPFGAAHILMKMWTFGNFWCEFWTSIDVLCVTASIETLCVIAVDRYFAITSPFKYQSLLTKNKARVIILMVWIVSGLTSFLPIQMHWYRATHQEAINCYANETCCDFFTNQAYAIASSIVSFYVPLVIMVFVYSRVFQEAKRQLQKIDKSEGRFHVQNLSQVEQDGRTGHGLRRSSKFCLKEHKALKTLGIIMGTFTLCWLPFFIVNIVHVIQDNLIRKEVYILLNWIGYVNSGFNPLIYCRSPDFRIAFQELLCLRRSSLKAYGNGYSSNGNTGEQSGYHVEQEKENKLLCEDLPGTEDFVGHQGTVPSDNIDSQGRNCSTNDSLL
glpG: Rhomboid protease GlpG (glpG, Escherichia coli, UniProt P09391)
UniProt P09391, sequence (whole entry, looked up): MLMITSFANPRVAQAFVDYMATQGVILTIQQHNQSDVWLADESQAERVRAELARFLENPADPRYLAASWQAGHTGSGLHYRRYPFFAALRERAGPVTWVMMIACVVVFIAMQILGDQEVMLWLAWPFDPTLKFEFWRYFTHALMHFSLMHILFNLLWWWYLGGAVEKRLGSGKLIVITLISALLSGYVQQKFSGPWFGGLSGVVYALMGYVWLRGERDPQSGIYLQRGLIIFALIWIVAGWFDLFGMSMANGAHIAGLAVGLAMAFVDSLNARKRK
ppa: Inorganic pyrophosphatase (ppa, Escherichia coli, UniProt P0A7A9)
UniProt P0A7A9, sequence (whole entry, looked up): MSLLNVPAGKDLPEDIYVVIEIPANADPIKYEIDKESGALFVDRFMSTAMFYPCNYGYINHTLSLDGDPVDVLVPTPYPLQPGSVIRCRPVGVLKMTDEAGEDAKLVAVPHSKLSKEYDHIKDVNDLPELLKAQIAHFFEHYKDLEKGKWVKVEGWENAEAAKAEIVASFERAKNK
DNA dC->dU-editing enzyme APOBEC-3B C-terminal domain: DNA dC->dU-editing enzyme APOBEC-3B, C-terminal domain (Homo sapiens, UniProt Q9UH17)
UniProt Q9UH17, sequence (whole entry, looked up): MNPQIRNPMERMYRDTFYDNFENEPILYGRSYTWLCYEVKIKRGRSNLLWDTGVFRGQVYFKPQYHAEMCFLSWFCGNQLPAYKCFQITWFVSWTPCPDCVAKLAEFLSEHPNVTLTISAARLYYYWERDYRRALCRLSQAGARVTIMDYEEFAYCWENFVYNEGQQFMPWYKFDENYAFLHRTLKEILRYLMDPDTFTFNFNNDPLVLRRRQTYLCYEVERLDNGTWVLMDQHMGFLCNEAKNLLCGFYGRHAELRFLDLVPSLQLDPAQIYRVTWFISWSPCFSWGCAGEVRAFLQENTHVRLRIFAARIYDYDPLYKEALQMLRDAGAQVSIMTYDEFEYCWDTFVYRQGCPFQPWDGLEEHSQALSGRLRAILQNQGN
PIK3CD: Phosphatidylinositol 4,5-bisphosphate 3-kinase catalytic subunit delta isoform (PIK3CD, Homo sapiens, UniProt O00329)
UniProt O00329, sequence (whole entry, looked up): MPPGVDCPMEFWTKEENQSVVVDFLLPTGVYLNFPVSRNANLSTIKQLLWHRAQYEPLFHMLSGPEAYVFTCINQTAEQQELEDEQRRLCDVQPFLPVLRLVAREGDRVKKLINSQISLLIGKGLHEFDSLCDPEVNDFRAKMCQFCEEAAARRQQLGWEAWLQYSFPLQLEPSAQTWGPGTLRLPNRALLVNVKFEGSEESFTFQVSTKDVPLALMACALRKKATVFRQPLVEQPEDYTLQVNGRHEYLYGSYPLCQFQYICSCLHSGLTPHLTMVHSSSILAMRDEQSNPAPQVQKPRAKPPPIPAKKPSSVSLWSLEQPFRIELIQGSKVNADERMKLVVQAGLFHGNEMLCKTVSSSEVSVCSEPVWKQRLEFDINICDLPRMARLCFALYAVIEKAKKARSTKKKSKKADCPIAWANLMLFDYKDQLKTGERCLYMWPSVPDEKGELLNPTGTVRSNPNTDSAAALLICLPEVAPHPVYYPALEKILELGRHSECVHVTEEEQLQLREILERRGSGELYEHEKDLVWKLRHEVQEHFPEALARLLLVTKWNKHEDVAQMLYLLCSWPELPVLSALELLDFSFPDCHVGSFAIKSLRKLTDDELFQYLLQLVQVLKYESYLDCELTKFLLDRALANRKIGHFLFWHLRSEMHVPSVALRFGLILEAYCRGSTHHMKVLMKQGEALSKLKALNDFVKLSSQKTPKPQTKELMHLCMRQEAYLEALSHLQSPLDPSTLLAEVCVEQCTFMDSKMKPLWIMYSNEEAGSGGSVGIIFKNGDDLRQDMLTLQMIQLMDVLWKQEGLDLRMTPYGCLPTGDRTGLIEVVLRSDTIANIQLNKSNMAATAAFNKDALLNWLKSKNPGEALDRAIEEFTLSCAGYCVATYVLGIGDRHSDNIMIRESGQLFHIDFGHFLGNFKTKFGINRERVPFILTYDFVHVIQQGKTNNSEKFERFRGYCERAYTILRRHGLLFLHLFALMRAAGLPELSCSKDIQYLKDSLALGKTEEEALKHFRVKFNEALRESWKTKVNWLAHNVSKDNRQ
NTSR1: Neurotensin receptor type 1 (NTSR1, Homo sapiens, UniProt P30989)
UniProt P30989, sequence (whole entry, looked up): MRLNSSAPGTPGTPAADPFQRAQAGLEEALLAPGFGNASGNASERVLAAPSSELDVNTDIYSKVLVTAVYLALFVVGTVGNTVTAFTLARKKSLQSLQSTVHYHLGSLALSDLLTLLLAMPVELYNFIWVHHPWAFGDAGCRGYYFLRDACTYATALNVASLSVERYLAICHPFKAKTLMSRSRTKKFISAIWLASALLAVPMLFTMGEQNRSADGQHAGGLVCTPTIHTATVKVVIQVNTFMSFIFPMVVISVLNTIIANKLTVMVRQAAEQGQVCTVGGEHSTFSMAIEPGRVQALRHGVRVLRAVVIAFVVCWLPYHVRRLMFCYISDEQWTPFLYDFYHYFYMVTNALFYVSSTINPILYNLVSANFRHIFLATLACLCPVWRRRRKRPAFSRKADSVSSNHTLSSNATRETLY
SLC7A5: Large neutral amino acids transporter small subunit 1 (SLC7A5, Homo sapiens, UniProt Q01650)
UniProt Q01650, sequence (whole entry, looked up): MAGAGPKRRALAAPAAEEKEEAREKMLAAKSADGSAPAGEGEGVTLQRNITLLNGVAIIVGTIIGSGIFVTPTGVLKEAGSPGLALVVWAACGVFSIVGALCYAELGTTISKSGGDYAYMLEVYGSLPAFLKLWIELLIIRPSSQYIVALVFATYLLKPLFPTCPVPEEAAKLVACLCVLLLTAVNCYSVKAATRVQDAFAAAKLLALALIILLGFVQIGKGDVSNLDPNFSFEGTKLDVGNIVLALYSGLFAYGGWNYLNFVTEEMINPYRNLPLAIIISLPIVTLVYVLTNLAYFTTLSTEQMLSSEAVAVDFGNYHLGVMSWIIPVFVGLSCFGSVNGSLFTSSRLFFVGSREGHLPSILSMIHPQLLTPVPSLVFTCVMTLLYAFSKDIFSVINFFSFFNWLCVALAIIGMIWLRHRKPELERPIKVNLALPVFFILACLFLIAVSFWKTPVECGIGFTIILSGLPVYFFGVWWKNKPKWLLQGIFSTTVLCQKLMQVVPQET
CYP2C19: Cytochrome P450 2C19 (CYP2C19, Homo sapiens, UniProt P33261)
Gria1: Glutamate receptor 1 (Gria1, Rattus norvegicus, UniProt P19490)
UniProt P19490, sequence (whole entry, looked up): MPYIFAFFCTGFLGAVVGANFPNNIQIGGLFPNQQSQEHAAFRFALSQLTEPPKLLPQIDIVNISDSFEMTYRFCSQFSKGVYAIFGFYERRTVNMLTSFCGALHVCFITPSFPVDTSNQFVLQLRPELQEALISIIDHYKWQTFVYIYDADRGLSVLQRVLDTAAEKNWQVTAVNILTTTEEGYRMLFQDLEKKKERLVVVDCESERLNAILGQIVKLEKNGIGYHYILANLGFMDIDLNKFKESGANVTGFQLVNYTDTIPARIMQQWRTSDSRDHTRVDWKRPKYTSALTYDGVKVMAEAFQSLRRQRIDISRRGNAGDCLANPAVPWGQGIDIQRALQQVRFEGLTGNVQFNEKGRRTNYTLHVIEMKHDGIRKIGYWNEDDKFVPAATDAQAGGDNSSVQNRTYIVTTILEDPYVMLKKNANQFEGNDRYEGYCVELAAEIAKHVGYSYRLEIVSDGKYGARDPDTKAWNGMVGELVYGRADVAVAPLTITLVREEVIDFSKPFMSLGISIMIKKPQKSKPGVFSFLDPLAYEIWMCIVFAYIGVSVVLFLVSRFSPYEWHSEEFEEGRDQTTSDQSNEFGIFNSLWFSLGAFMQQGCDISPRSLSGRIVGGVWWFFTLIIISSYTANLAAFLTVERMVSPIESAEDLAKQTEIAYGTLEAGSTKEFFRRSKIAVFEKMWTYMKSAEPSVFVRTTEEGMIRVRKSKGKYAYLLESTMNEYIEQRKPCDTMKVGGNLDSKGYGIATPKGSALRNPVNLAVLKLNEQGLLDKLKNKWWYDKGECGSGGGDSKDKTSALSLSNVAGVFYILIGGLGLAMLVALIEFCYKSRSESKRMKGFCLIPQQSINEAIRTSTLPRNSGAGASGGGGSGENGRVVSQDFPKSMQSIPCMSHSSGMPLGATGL
DNA dC->dU-editing enzyme APOBEC-3B: DNA dC->dU-editing enzyme APOBEC-3B (Homo sapiens, UniProt Q9UH17)
NNMT: Nicotinamide N-methyltransferase (NNMT, Homo sapiens, UniProt P40261)
UniProt P40261, sequence (whole entry, looked up): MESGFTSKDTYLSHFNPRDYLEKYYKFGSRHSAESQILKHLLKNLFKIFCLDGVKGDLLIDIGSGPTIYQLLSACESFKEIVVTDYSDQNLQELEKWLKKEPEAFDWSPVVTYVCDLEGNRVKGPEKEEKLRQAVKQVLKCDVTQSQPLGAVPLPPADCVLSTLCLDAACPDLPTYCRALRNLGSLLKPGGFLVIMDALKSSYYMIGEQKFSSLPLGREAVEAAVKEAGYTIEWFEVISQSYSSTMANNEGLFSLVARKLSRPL
OfChi-h: Chitinase (OfChi-h, Ostrinia furnacalis, UniProt Q4AE59)
CHRM3: Muscarinic acetylcholine receptor M3 (CHRM3, Homo sapiens, UniProt P20309)
UniProt P20309, sequence (whole entry, looked up): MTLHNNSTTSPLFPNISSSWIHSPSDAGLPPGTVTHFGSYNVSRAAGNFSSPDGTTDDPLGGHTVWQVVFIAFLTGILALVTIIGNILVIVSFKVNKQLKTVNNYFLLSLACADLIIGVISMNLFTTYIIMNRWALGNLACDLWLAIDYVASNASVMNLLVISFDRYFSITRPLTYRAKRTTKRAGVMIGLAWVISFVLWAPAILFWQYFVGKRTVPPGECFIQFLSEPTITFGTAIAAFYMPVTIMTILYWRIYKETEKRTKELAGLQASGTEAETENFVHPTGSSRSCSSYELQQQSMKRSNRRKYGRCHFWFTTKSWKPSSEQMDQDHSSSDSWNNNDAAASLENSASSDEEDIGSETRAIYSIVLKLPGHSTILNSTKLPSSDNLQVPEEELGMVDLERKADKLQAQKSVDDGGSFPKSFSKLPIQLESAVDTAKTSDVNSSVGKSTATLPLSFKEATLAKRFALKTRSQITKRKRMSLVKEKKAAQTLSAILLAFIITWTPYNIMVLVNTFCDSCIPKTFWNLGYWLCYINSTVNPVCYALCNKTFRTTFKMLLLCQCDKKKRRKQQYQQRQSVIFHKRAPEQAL

`Cc1nn(-c2cccc(N)c2)c(=O)c2cnc(Nc3ccc(N4CCNCC4)cc3)nc12` has an IC50 of 1.98 µM (PRKG2 (Homo sapiens, UniProt Q13237); enzyme activity, inhibitor).
`Cc1cnc(Nc2ccc3c(c2)CCN(C(=O)/C=C/C(=O)C(C)C)C3)nc1-c1cnn(C(C)C)c1` has an IC50 of 0.00746 µM (JAK1 (Homo sapiens, UniProt P23458); enzyme activity, inhibitor, ADP detection).
`COc1ccc2c(c1OC)C(=O)N(c1cccc(NC(C)=O)c1)C2` has an IC50 of > 100 µM (Uncharacterized protein; inhibitor, coupled colorimetric; Trypanosoma brucei).
With `Fc1ccc2nc(Nc3ccc(F)c(F)c3)nc(NC3CCCCC3)c2c1` the IC50 was 0.5 µM (ADRB2; β-arrestin recruitment, antagonist).
The IC50 of `O=C1CC(c2ccccc2)N1S(=O)(=O)c1ccc(-c2ccc(Cl)cc2)cc1` (centres unmarked) is reported as 7.3 µM (glpG; substrate cleavage, inhibitor; NR698).
`Cc1cc(C)c(S(=O)(=O)N(CC(=O)O)c2ccc(Nc3ccnc(N4CCCC4)n3)cc2)c(C)c1` has an IC50 of > 100 µM (Aurora kinase C (AURKC, Homo sapiens, UniProt Q9UQB9); enzyme activity, inhibitor).
With `C[N+](C)(CCCN1c2ccccc2CCc2ccc(Cl)cc21)CC(=O)c1ccccc1` the IC50 was 52.5 µM (ppa; inhibitor, counter-screen, coupling enzyme alone).
The IC50 of `Cc1nnc(Nc2ccc(O)cc2)nc1O` is reported as 114 ± 6 µM (DNA dC->dU-editing enzyme APOBEC-3B C-terminal domain; deaminase activity, inhibitor, UDG-coupled deamination).
With `O=C1/C(=N\c2ccc(Cl)cc2Br)c2ccccc2N1Cc1cccc(Cl)c1` (mixture of isomers) the IC50 was 0.0414 µM (PIK3CD; enzyme activity, inhibitor, ADP detection).
`COc1ccccc1C1CCN(c2nc(C3(C(F)(F)F)CC3)nc3ccc(N(C)CCO)cc23)CC1` gave an IC50 of 0.628 µM (NTSR1; G protein activation, antagonist, BRET).
The IC50 of `N[C@@H](Cc1c[nH]c2ccc(OCc3cccc(-c4cccs4)c3)cc12)C(=O)O` is reported as 12.6 µM (SLC7A5; transporter uptake, inhibitor, radiometric).
For `c1ccc(C2=Nn3c(nnc3C3CCCCC3)SC2)cc1`, the IC50 was > 100 µM (Uncharacterized protein; inhibitor, coupled colorimetric; Trypanosoma brucei).
With `O=C(NC1CCC(F)(F)CC1)C(c1cncnc1)N(C(=O)C(F)Cl)c1ccc(OC(F)(F)F)cc1` (centres unmarked) the IC50 was 40.4 µM (CYP2C19; enzyme activity, inhibitor; 10 (unit not given)).
For `CC(C)c1ccc(/C=C/C(=O)c2cccc(C(F)(F)F)c2)cc1`, the IC50 was 1.41 µM (MAOB (Homo sapiens, UniProt P27338); enzyme activity, inhibitor).
`O=C(O)Cc1cc2c(cc1C(=O)c1ccccc1Br)OCO2` has an IC50 of 4.68 µM (Gria1; ion current, patch clamp).
With `Clc1cccc(Nc2nc(NC3CCCCC3)c3ccccc3n2)c1` the IC50 was 6 µM (ADRB2; β-arrestin recruitment, antagonist).
With `Nc1cc(COc2ccc3[nH]cc(CC(N)C(=O)O)c3c2)c2oc(-c3ccccc3)nc2c1` (centres unmarked) the IC50 was 17.6 µM (SLC7A5; transporter uptake, inhibitor, radiometric).
`CCC1(O)CCCN(C(=O)c2ccc(-c3ccc(F)c(C(N)=O)c3)cc2)C1` (centres unmarked) has an IC50 of 693 µM (DNA dC->dU-editing enzyme APOBEC-3B; enzyme activity, inhibitor, HPLC).
The IC50 of `COc1ccccc1C1CCN(c2nc(C3CC3)nc3ccc(N4CCC(N(C)C)C4)cc23)CC1` (centres unmarked) is reported as 13.5 µM (NTSR1; G protein activation, antagonist).
For `O=C(CSc1nnc(-c2ccco2)c(-c2ccco2)n1)c1ccc(Cl)s1`, the IC50 was 91.1 µM (Uncharacterized protein; enzyme activity, inhibitor, coupled colorimetric; together with: E. coli pyrophosphatase coupling).
With `N[C@@H](Cc1c[nH]c2ccc(OCc3cccc(-c4ccco4)c3)cc12)C(=O)O` the IC50 was 20.4 µM (SLC7A5; transporter uptake, inhibitor, radiometric).
The IC50 of `COC(=O)Cc1cc2c(cc1C(=O)c1ccccc1Br)OCO2` is reported as 5.5 µM (Gria1; glutamate-evoked current, inhibitor, whole-cell patch clamp; HEK293T, homomeric receptor).
For `C=CC(=O)N1[C@H](c2ccc3c(c2)OCO3)c2[nH]c3cc(C#Cc4ccccc4)ccc3c2C[C@H]1C(=O)OC`, the IC50 was 2 µM (GrpE protein homolog 1, mitochondrial (GRPEL1, Homo sapiens, UniProt Q9HAV7); target engagement, inhibitor, competitive gel-based ABPP; HCT-116).
With `Cc1ccc2nc(Nc3ccc(F)c(F)c3)nc(NC3CCCCC3)c2c1` the IC50 was 0.36 µM (ADRB2; β-arrestin recruitment, antagonist).
The IC50 of `Cc1ccc(C(N)=O)cn1` is reported as 12.6 µM (NNMT; enzyme activity, inhibitor).
`CN1CCC[C@@H]1C(=O)N[C@@H](Cc1ccc(-c2ccccc2)cc1)B(O)O` has an IC50 of 0.085 ± 0.015 µM (Proteasome component C5/PSMB5 (Homo sapiens, UniProt P20618+P28074); enzyme activity, inhibitor; HEPES buffer, together with: Ac-WLA-AMC, PA28αβ).
For `CNc1cc(Cl)c(C(N)=O)cn1`, the IC50 was 1.58 µM (NNMT; enzyme activity, inhibitor).
The IC50 of `CO[C@@H](C[C@H]1C(C)=CC[C@@H]2[C@]3(C)C[C@H](O[C@@H]4O[C@@H](C)[C@H](OC(=O)c5cccc(O)c5)[C@@H](O)[C@H]4O)[C@@H](O)C(C)(C)[C@H]3CC[C@]21C)[C@H](N)C(=O)O` is reported as 0.25 µM (SLC7A5; transporter uptake).
For `COc1ccc2c(c1OC)C(=O)N(c1nc3ccccc3s1)C2`, the IC50 was > 30 µM (ppa; inhibitor, counter-screen, coupling enzyme alone).
The IC50 of `O=C1/C(=N\c2ccc(Cl)cc2Br)c2ccccc2N1C(=O)c1ccccc1Br` is reported as 0.00297 µM (PIK3CD; enzyme activity, inhibitor, ADP detection).
The IC50 of `COc1ccc(-c2ccc(C(=O)N(C)CCO)cc2)c(OC)c1` is reported as 979 ± 49 µM (DNA dC->dU-editing enzyme APOBEC-3B C-terminal domain; deaminase activity, inhibitor, UDG-coupled deamination).
The IC50 of `CN(C)c1nc(NCc2ccccc2F)c(/N=N/c2ccc(Cl)cc2)c(N(C)C)n1` is reported as 0.15 µM (OfChi-h; enzyme activity, inhibitor, fluorescence).
The IC50 of `O=C(CSc1nnc(-c2ccco2)c(-c2ccco2)n1)c1ccc(Br)cc1` is reported as > 30 µM (ppa; inhibitor, counter-screen, coupling enzyme alone).
`O=C(CCNC(=O)CNC(=O)CC(c1ccccc1)(c1ccccc1)c1ccccc1)NC[C@H]1CCCN(C(=O)c2ccc(F)cc2)C1` gave an IC50 of > 30 µM (CHRM3; ligand displacement, radioligand; cell membranes).
`Cc1cc(NC2CCN(C)CC2)ccc1-c1cc2c(N3CCC[C@H](C(=O)NCc4ccc(OC(F)(F)F)cc4)C3)ncnc2[nH]1` gave an IC50 of > 8 µM (NEK2 (Homo sapiens, UniProt P51955); enzyme activity, inhibitor, mobility shift).
`Clc1ccc(Nc2nc(NC3CCCCC3)c3ccccc3n2)cc1Cl` has an IC50 of 3 µM (ADRB2; β-arrestin recruitment, antagonist).
`CN(C)c1nc(NCc2ccc3ccccc3c2)c(/N=N/c2ccc(Cl)cc2)c(N(C)C)n1` gave an IC50 of 0.15 µM (OfChi-h; enzyme activity, inhibitor, fluorescence).
With `COc1ccc(C(N)=O)cn1` the IC50 was 2.51 µM (NNMT; enzyme activity, inhibitor).
`Cc1ccc(Nc2cc(NC3CC3)n3ncc(C#N)c3n2)cc1NC(=O)C1CC1` gave an IC50 of > 10 µM (SGK3 (Homo sapiens, UniProt Q96BR1); inhibitor).
The IC50 of `Nc1cccc(NC(P(=O)(O)O)P(=O)(O)O)c1` is reported as 70.5 µM and 70 µM (polyphosphate kinase 2 (Cytophaga hutchinsonii, UniProt A0A6N4SMB5); enzyme activity, inhibitor, HPLC; 30 min, 37 °C, together with: 0.04 mM ADP and 0.3 mM polyP).
`COC(=O)C12CCC(C)C(C)C1C1=CCC3C4(C)CCC(O)C(C)(C)C4CCC3(C)C1(C)CC2` (centres unmarked) gave an IC50 of > 100 µM (UGT1A4 (Homo sapiens, UniProt P22310); enzyme activity, inhibitor; human, liver microsomes).
With `COc1ccccc1/C=C1\C(=O)N(C)c2ccc(Nc3nc(C)nc4ccccc34)cc21` the IC50 was 0.542 µM (PIK3CD; enzyme activity, inhibitor, ADP detection).
`O=c1cc(-c2ccc(O)cc2)oc2c([C@@H]3OC[C@H](O)[C@H](O)[C@H]3O)c(O)c([C@@H]3O[C@H](CO)[C@@H](O)[C@H](O)[C@H]3O)c(O)c12` gave an IC50 of 95.6 µM (CAMK2D (Homo sapiens, UniProt Q13557); binding, LanthaScreen Eu binding; initial read).
`CC(C)(C)OC(=O)N1CCN(c2ccc3c(O)c(C(=O)NCc4ccc(C#N)nc4)ncc3n2)CC1` gave an IC50 of > 10 µM (KDM4D (Homo sapiens, UniProt Q6B0I6); enzyme activity, inhibitor).
`O=C1CC(c2ccccc2)N1S(=O)(=O)c1ccc(-c2ccccc2)cc1` (centres unmarked) has an IC50 of 7 µM (glpG; substrate cleavage, inhibitor; NR698).
For `FC(F)(F)c1cccc(Nc2nc(NC3CCCCC3)c3ccccc3n2)c1`, the IC50 was 3 µM (ADRB2; β-arrestin recruitment, antagonist).
`COC(=O)Cc1cc2c(cc1C(=O)c1ccc(Cl)cc1Cl)OCO2` has an IC50 of 5.01 µM (Gria1; glutamate-evoked current, inhibitor, whole-cell patch clamp; HEK293T, homomeric receptor).
`O=C(CCNC(=O)CNC(=O)CC(c1ccccc1)(c1ccccc1)c1ccccc1)NC[C@@H]1CCCN(C[C@H]2C[C@H](F)C2)C1` has an IC50 of 2.1 µM (CHRM3; ligand displacement, radioligand; cell membranes).
With `CC(=O)NC1C(=O)N(c2ccccc2)N=C1C` (centres unmarked) the IC50 was 31.3 µM (Uncharacterized protein; enzyme activity, inhibitor, coupled colorimetric; together with: E. coli pyrophosphatase coupling).
`CC(C)(C)n1ncc2c(=O)n(Cc3cccc(F)c3)c(NCc3ccc(F)cn3)nc21` has an IC50 of > 25 µM (CYP2C19; enzyme activity, inhibitor).
The IC50 of `COc1ccc(C(=O)CC2(O)C(=O)Nc3ccc(C)cc32)cc1OC` (centres unmarked) is reported as > 100 µM (ppa; enzyme activity, inhibitor).
`COc1ccccc1C1CCN(c2nc(C3(F)CCCC3)nc3ccc(N(C)CCO)cc23)CC1` has an IC50 of 2.09 µM (NTSR1; G protein activation, antagonist).
`OC1CCCN(CCCNc2cc(-c3ccccc3)nc3ccnn23)C1` (centres unmarked) gave an IC50 of 142 µM (DNA dC->dU-editing enzyme APOBEC-3B; enzyme activity, inhibitor, HPLC).

For quick reference, copied from above:
The IC50 of `Cc1nnc(Nc2ccc(O)cc2)nc1O` is reported as 114 ± 6 µM (DNA dC->dU-editing enzyme APOBEC-3B C-terminal domain; deaminase activity, inhibitor, UDG-coupled deamination).
With `O=C1/C(=N\c2ccc(Cl)cc2Br)c2ccccc2N1Cc1cccc(Cl)c1` (mixture of isomers) the IC50 was 0.0414 µM (PIK3CD; enzyme activity, inhibitor, ADP detection).
`COc1ccccc1C1CCN(c2nc(C3(C(F)(F)F)CC3)nc3ccc(N(C)CCO)cc23)CC1` gave an IC50 of 0.628 µM (NTSR1; G protein activation, antagonist, BRET).
The IC50 of `N[C@@H](Cc1c[nH]c2ccc(OCc3cccc(-c4cccs4)c3)cc12)C(=O)O` is reported as 12.6 µM (SLC7A5; transporter uptake, inhibitor, radiometric).
For `c1ccc(C2=Nn3c(nnc3C3CCCCC3)SC2)cc1`, the IC50 was > 100 µM (Uncharacterized protein; inhibitor, coupled colorimetric; Trypanosoma brucei).
With `O=C(NC1CCC(F)(F)CC1)C(c1cncnc1)N(C(=O)C(F)Cl)c1ccc(OC(F)(F)F)cc1` (centres unmarked) the IC50 was 40.4 µM (CYP2C19; enzyme activity, inhibitor; 10 (unit not given)).
For `CC(C)c1ccc(/C=C/C(=O)c2cccc(C(F)(F)F)c2)cc1`, the IC50 was 1.41 µM (MAOB (Homo sapiens, UniProt P27338); enzyme activity, inhibitor).
